# Measured values gathered from unrelated publications.
# Every numbered part comes from another study and shows a few of its results, in no order. Substitutions count along the parent as printed.
# Chain of UniProt Q9Y3S1 (whole entry, looked up): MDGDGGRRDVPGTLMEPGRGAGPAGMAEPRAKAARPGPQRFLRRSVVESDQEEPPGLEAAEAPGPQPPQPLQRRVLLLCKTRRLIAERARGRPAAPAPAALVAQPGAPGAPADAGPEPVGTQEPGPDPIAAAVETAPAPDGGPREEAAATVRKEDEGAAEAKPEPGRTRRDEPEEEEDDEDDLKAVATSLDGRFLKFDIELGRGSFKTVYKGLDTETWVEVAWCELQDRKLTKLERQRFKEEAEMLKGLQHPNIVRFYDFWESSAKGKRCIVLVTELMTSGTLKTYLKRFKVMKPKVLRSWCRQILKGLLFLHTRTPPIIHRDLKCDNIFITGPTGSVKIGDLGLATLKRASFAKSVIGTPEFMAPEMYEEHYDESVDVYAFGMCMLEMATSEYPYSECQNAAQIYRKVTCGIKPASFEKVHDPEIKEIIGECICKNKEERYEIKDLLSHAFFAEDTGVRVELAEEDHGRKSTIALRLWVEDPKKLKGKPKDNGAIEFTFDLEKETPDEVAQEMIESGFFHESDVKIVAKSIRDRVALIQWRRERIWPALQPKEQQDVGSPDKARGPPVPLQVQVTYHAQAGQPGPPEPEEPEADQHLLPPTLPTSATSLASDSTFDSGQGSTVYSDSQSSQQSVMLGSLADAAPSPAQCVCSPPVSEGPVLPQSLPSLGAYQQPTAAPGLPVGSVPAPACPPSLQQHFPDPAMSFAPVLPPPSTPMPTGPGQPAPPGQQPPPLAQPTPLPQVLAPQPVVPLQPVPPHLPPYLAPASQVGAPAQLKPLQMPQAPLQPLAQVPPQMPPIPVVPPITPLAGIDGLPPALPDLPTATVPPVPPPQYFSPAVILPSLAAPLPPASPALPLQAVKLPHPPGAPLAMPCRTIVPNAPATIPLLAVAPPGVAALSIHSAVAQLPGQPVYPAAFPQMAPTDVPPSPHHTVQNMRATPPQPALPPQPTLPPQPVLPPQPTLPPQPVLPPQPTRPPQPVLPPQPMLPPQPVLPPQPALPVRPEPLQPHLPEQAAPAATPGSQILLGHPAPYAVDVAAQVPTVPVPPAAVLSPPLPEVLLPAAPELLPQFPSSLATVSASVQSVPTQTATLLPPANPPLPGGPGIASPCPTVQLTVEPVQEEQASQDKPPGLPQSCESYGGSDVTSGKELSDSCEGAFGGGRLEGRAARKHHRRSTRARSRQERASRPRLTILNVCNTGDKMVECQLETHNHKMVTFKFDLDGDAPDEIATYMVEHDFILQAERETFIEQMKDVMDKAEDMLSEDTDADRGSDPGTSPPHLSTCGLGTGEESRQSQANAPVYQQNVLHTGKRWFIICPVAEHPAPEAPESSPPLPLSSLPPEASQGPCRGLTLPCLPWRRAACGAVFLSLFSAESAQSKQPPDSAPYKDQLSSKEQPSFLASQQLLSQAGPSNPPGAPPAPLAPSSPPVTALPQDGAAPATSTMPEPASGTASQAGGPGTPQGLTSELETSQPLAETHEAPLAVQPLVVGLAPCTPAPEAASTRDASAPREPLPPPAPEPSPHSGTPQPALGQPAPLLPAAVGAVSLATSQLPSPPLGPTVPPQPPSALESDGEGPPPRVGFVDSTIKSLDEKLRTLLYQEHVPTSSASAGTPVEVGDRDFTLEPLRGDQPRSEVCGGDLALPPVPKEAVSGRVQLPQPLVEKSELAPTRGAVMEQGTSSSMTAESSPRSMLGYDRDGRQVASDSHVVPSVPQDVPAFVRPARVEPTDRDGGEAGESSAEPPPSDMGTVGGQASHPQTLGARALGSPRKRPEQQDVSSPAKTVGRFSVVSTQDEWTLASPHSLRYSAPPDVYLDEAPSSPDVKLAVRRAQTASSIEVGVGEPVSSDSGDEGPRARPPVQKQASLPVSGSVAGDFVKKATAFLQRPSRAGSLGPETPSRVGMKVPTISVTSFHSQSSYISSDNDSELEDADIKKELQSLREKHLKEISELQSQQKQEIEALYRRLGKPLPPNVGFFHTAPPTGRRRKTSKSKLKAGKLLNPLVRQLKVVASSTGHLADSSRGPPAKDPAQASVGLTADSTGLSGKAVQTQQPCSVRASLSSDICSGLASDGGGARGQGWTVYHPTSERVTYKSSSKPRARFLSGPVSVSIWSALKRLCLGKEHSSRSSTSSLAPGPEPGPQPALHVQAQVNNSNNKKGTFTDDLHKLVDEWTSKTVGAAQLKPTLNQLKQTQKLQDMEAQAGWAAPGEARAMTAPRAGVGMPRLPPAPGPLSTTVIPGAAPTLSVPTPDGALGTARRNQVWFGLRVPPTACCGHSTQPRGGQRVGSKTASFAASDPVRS

# Set 1
# Target: Runt-related transcription factor 1, full length (RUNX1, Homo sapiens, UniProt Q01196-8, residues 1-480)
# Method: protein-binding microarray
# Form: hairpin DNA
# Medium: in vitro
# Concentration: not given
# Notes: whole hairpin DNA, median over replicate spots
# Baseline: not given
# Direction: higher = stronger binding
Oligonucleotide,median fluorescence [a.u.]
GAGGCCCACGCGCAACAGCCTCCTGGCTGTTGCGCGTGGGCCTCACACTC,1810
CTCAGTTCTGTGGGCTGGACTCCTGTCCAGCCCACAGAACTGAGACACTC (5mC at 15),1950
GAGGCCTGTTGTCGTTGGCCTCCTGGCCAACGACAACAGGCCTCACACTC (5mC at 13),1710
GAGGCCTGTCGCGGTTGGCCTCCTGGCCAACCGCGACAGGCCTCACACTC (5mC at 37),2620
GAGGCCTGTCGCGGTTGGCCTCCTGGCCAACCGCGACAGGCCTCACACTC (5mC at 5),2590
GAGGCCTGTTGCGGGTGGCCTCCTGGCCACCCGCAACAGGCCTCACACTC (5mC at 30),2110

# Set 2
# Target: ABI1, truncated, D143A, DHFR fusion (Arabidopsis thaliana)
# Method: DHFR PCA, deep sequencing
# Medium: yeast
# Notes: methotrexate growth selection, single substitutions
# With: (+)-ABA 0.39 µM
# Baseline: wild-type fitted maximum
# Direction: higher = stronger binding
# Starting sequence: PYL1, truncated, DHFR fusion (Arabidopsis thaliana); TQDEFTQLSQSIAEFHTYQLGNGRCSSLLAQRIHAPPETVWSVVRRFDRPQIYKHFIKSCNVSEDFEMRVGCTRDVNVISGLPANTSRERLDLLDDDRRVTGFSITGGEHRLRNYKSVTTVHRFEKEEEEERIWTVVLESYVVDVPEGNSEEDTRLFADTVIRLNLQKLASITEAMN; partner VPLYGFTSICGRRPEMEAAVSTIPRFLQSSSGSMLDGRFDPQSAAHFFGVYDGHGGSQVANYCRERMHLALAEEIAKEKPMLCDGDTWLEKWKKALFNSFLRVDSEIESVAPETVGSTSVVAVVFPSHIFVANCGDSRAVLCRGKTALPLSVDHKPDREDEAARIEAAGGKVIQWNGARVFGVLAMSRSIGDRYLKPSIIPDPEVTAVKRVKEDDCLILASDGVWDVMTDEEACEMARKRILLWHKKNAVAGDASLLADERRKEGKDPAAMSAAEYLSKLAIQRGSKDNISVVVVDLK
Variant,relative binding score [%]
E128K,33.7
P50G,-7.53
R32V,58.7
E125G,48.8
A84E,14.3
A30D,7.15
T106L,67.8
V142E,22.8

# Set 3
# Target: Histone acetyltransferase KAT6A, winged helix 1, GST fusion (KAT6A, Homo sapiens, UniProt Q92794, residues 1-85)
# Method: protein binding microarray
# Form: double-stranded DNA, one strand shown
# Medium: in vitro
# Concentration: not given
# Notes: 8-mer, flanks averaged, mean of 2 arrays, mostly near background
# Baseline: not given
# Direction: higher = stronger binding
# Construct (chain): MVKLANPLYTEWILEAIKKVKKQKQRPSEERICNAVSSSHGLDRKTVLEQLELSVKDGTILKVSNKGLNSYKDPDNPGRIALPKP
Oligonucleotide,E-score
AGGTAACA,-0.211
ATGACCTG,-0.0398
ACCGACCC,0.32
ATGCTTAA,-0.0171
GAAATGAA,-0.17
CGCAGGCC,0.22
CGCCGAAC,0.341
GATCACTA,0.0281

# Other studies, line by line
SMILES,target,assay,setting,how to read,endpoint,result
C#Cc1cccc(Nc2ncnc3cc(OCCOC)c(OCCOC)cc23)c1,"Serine/threonine-protein kinase WNK2 (WNK2, Homo sapiens, UniProt Q9Y3S1)","enzyme activity, inhibitor",0.5 µM,baseline: control,remaining activity,100%

# Some of these lines once more (set 1):
Oligonucleotide,median fluorescence [a.u.]
GAGGCCTGTCGCGGTTGGCCTCCTGGCCAACCGCGACAGGCCTCACACTC (5mC at 37),2620
GAGGCCTGTCGCGGTTGGCCTCCTGGCCAACCGCGACAGGCCTCACACTC (5mC at 5),2590
GAGGCCTGTTGCGGGTGGCCTCCTGGCCACCCGCAACAGGCCTCACACTC (5mC at 30),2110
